Published values gathered from unrelated publications.
Each numbered part is a random draw from the data of one study; scales do not carry over between parts. Values joined by “and” are separate records of one study, mostly repeats; a detail may differ. ± marks the error that the study gave.
UniProt Q86U86, sequence (whole entry, looked up): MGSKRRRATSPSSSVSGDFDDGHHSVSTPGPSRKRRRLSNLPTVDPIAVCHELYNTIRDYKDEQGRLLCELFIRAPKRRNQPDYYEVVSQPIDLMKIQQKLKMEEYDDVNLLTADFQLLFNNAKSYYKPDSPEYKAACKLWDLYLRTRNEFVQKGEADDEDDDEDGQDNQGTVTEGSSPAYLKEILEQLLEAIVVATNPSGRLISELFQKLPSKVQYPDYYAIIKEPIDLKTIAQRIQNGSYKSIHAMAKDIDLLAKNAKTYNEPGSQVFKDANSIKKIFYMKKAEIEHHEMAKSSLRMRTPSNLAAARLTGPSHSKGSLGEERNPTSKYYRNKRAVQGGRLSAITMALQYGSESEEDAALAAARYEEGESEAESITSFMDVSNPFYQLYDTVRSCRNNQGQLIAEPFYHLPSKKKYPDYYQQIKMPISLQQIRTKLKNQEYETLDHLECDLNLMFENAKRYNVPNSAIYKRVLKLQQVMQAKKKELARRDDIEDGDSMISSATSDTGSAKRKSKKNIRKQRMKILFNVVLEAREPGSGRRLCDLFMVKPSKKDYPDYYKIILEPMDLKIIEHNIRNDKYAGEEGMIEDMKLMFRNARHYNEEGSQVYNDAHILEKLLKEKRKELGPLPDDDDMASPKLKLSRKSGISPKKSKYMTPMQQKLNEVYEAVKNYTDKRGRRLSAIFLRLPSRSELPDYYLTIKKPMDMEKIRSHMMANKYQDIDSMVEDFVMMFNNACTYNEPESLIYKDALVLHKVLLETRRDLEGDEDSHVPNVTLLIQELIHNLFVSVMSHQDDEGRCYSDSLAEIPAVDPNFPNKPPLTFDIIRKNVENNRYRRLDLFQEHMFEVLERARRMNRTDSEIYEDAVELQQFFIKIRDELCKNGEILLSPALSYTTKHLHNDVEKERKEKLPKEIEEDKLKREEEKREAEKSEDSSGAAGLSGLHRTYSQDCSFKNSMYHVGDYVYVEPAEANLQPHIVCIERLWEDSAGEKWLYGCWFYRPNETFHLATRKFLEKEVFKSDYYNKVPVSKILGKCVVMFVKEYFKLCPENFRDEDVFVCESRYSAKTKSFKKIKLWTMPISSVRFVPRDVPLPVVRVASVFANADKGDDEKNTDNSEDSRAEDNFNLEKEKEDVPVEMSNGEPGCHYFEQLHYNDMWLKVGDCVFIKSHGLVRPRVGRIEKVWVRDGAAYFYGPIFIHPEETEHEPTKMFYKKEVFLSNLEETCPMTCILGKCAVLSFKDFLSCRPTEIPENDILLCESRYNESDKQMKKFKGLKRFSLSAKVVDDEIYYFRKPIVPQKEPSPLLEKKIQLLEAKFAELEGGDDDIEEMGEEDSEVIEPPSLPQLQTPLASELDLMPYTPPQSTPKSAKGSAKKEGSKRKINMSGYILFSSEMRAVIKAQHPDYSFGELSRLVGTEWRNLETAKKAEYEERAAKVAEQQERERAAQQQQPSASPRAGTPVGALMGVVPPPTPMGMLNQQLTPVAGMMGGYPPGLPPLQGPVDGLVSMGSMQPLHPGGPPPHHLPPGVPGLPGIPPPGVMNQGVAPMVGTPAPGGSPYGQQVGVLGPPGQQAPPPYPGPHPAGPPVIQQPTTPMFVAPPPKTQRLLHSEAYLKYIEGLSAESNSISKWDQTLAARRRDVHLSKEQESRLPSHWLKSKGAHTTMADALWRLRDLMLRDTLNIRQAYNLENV

Sample 1
Cell line: sample C colorectal tumour organoid
Tested at: 1 µM
Baseline: DMSO
| Structure (SMILES) | viability |
| --- | --- |
| CCOc1cn(-c2ccc(F)cc2C)nc1C(=O)Nc1ccc(Oc2ccnc3cc(OC)c(OC)cc23)c(F)c1 | 101% and 102% |
| CC(C)C(=O)Nc1n[nH]c2cc(-c3cccc(NS(=O)(=O)C4CC4)c3)ccc12 | 98.3% |
| CN(C)C(=O)Cn1cc(-c2ccc(-c3nnc4ccccn34)cc2)cn1 | 99.9% |
| COc1ccc2c(O[C@@H]3C[C@H]4C(=O)N[C@]5(C(=O)O)CC5/C=C\CCCCC[C@H](NC(=O)OC5CCCC5)C(=O)N4C3)cc(-c3csc(NC(=O)C(C)C)n3)nc2c1C (some centres unmarked) | 108% |
| O=C(O)c1ccc(-c2coc3ncc(-c4ccccc4)cc23)cc1Cl | 104% |
| O=C(Nc1cccnn1)N1CC(CC=Cc2cncc(Oc3ccc(C(F)(F)F)cn3)n2)C1 | 99.5% |
| CCN(CC)S(=O)(=O)Nc1cccc(-c2ccc3c(NC(=O)C4CC4)n[nH]c3c2)c1 | 79.4% |
| CCCCNc1ncc(-c2ccc(CN3CCOCC3)cn2)c(NC2CCC(O)CC2)n1 (centres unmarked) | 100% |
| COc1cccc(NC(=O)c2nc3scc(CN(C)Cc4ccccc4)c3c(=O)[nH]2)c1 | 89.4% |
| CC(=O)NCC(=O)N1[C@@H]2CC[C@H]1c1ccc(Nc3ncc(C(F)(F)F)c(NC4CCC4)n3)cc12 | 22.6% and 33.8% |
| CN1CCN(Cc2cc(NC(=O)c3ccc4c(c3)CN(c3ccccc3)CC4)cc(C(F)(F)F)c2)CC1 | 43.9% and 37.4% |
| CCNC(=O)c1cc2c(N3CCOC[C@H]3C)ccnc2n1C | 122% and 82% |
| Cl.Cl.NC1(c2ccc(-c3nc4ccn5c(=O)[nH]nc5c4cc3-c3ccccc3)cc2)CCC1 | 90.8% |
| CCC(=N\O)/C(C)=C/c1ccc(F)cc1 | 106% |
| COc1cc(Nc2ccnc3ccc(Br)cc23)cc(OC)c1OC | 34.8% |
| Cc1ncc(-c2cc(Cl)ccc2F)cc1-n1c(=O)n(CC(N)=O)c2ccccc21 | 106% |
| CCC(=NO)C(C)=Cc1ccc(F)c(C)c1 | 85.5% |
| O=C(NCc1ccccc1)c1ccc(S(=O)(=O)NCc2ccccc2)cc1 | 95.2% |
| Cn1cc(-c2ccc3occ(-c4ccccc4-c4ccccc4)c3n2)cn1 | 102% |

Sample 2
Organism: Plasmodium berghei
Action: inhibitor
Cells: Huh-7
Strain: liver stage
Tested at: 10 µM
Time: 24 h
Baseline: untreated control
| Compound | infection rate [%] |
| --- | --- |
| NC[C@H]1O[C@H](O[C@H]2[C@H](O)[C@@H](O[C@H]3O[C@H](CO)[C@@H](O)[C@H](N)[C@H]3O)[C@H](N)C[C@@H]2N)[C@H](O)[C@@H](O)[C@@H]1O | 93.6 |
| CCN(CC)C(C)CN1c2ccccc2Sc2ccccc21 (centres unmarked) | 74.1 |
| CC(=O)OCC(=O)[C@@]1(O)CC[C@H]2[C@@H]3CCC4=CC(=O)CC[C@]4(C)[C@@]3(F)[C@@H](O)C[C@@]21C | 102 |
| N[C@@H](Cc1cc(I)c(Oc2cc(I)c(O)c(I)c2)c(I)c1)C(=O)O | 108 |
| Nc1nc(=O)c2c([nH]1)NCC(CNc1ccc(C(=O)N[C@@H](CCC(=O)O)C(=O)O)cc1)N2C=O (some centres unmarked) | 113 |
| C[C@]12CCC(=O)C=C1CC[C@@H]1[C@@H]2[C@@H](O)C[C@@]2(C)[C@H]1CC[C@]2(O)C(=O)COC(=O)CCC(=O)O | 90.7 |

Sample 3
Target: DNA polymerase theta, ATPase domain (POLQ, Homo sapiens, UniProt O75417)
UniProt O75417, sequence (whole entry, unmodified, looked up): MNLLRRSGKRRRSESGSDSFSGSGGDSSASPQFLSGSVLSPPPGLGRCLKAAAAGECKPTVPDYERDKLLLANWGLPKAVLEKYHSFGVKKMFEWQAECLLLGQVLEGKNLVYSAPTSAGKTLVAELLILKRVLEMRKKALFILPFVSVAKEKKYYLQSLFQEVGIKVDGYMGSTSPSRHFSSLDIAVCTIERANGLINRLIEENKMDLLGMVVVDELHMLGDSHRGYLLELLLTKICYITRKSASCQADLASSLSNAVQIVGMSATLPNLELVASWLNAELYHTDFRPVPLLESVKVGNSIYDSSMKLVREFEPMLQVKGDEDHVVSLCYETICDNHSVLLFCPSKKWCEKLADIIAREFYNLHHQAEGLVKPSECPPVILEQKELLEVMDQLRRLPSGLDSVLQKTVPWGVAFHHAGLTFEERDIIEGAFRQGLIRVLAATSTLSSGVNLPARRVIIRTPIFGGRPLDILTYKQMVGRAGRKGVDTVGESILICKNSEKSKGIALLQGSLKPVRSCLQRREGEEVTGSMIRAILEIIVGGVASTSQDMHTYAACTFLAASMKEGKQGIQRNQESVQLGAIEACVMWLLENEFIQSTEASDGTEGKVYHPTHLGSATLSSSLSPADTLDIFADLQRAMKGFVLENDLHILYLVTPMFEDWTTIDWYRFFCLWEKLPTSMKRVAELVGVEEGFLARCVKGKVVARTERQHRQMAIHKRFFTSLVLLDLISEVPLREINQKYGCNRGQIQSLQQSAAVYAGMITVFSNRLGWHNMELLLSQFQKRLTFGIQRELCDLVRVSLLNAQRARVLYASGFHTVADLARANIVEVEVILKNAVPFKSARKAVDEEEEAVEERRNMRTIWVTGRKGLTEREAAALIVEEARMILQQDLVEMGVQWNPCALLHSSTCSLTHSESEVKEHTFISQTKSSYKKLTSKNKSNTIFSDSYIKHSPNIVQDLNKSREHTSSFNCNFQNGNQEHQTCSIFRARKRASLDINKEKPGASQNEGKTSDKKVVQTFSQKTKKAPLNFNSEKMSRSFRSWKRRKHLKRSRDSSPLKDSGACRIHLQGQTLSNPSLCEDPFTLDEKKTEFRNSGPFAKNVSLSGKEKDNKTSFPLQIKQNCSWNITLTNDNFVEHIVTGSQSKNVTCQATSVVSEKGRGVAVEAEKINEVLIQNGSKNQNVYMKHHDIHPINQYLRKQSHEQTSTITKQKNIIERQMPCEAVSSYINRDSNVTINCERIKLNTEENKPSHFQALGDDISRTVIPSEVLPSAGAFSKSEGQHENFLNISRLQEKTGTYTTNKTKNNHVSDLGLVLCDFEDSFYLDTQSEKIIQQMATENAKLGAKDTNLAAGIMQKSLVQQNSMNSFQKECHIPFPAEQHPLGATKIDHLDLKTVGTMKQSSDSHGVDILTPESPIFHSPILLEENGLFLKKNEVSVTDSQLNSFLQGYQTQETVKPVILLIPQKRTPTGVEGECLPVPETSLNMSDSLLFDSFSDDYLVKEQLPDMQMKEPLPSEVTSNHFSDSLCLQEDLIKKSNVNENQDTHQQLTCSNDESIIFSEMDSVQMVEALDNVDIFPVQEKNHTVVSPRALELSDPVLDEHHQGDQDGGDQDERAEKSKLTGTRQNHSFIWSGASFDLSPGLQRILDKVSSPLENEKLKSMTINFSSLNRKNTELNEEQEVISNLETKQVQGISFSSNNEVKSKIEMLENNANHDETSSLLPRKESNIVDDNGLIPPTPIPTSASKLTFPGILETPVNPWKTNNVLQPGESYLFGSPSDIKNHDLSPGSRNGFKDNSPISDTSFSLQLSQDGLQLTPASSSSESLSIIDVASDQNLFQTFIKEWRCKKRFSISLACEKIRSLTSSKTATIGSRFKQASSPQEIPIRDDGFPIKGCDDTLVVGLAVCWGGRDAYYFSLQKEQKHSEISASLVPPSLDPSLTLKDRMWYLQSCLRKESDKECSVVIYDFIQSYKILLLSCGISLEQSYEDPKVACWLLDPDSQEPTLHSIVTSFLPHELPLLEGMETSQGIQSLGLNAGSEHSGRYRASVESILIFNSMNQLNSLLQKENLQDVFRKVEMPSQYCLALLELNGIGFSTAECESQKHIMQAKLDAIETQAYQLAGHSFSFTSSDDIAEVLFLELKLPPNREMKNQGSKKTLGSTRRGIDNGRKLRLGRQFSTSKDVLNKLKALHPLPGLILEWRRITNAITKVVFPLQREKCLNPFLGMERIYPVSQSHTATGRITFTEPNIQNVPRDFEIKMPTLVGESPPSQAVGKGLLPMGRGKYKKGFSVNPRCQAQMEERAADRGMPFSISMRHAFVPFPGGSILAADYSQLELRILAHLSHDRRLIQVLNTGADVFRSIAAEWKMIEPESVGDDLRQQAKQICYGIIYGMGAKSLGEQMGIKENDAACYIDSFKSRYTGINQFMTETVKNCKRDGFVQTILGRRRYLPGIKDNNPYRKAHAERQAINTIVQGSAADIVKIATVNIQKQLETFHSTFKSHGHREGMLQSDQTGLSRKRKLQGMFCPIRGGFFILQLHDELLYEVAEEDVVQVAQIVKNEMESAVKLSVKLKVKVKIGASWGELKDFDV
Effect on: enzyme activity
Action: inhibitor
Tested at: 77 µM
Baseline: untreated
| SMILES | remaining activity |
| --- | --- |
| N[C@H]1CONC1=O | 101% |
| Oc1ccc([C@H]2COc3cc(O)ccc3C2)cc1 | 94.1% |
| NC(=O)OCC(O)COc1ccc(Cl)cc1 (centres unmarked) | 92.6% |
| CNC(=O)c1cc(Oc2ccc(NC(=O)Nc3ccc(Cl)c(C(F)(F)F)c3)c(F)c2)ccn1 | 101% |
| Oc1c(Cl)cc(Cl)c2cccnc12 | 110% |

Sample 4
Structure (SMILES): Oc1ccc(-c2nc(-c3ccncc3)c(-c3ccc(F)cc3)[nH]2)cc1
Tested at: 10 µM
| target | effect on | method | ΔTm [°C] |
| --- | --- | --- | --- |
| CREBBP (Homo sapiens, UniProt Q92793) | thermal stability | DSF | 0.47 |
| BAZ1B (Homo sapiens, UniProt Q9UIG0) | thermal stability | DSF | 0.52 |
| Protein polybromo-1, BD6 (PBRM1, Homo sapiens, UniProt Q86U86) | – | thermal shift | 0.43 ± 0.4 |
| Protein polybromo-1, bromodomain (PBRM1, Homo sapiens, UniProt Q86U86) | thermal stability | DSF | 0.47 |
| Transcription initiation factor TFIID subunit 1-like, BD2 (TAF1L, Homo sapiens, UniProt Q8IZX4) | thermal stability | DSF | -0.32 |
| Peregrin, bromodomain (BRPF1, Homo sapiens, UniProt P55201) | thermal stability | DSF | 0.74 |
| Protein polybromo-1, BD2 (PBRM1, Homo sapiens, UniProt Q86U86) | thermal stability | DSF | 0.09 |
| Protein polybromo-1, BD3 (PBRM1, Homo sapiens, UniProt Q86U86) | – | thermal shift | -0.57 ± 0.14 |

A few entries again (sample 1):
| Structure (SMILES) | viability |
| --- | --- |
| CC(=O)NCC(=O)N1[C@@H]2CC[C@H]1c1ccc(Nc3ncc(C(F)(F)F)c(NC4CCC4)n3)cc12 | 22.6% and 33.8% |
| CCNC(=O)c1cc2c(N3CCOC[C@H]3C)ccnc2n1C | 122% and 82% |
| CCC(=NO)C(C)=Cc1ccc(F)c(C)c1 | 85.5% |
| CN1CCN(Cc2cc(NC(=O)c3ccc4c(c3)CN(c3ccccc3)CC4)cc(C(F)(F)F)c2)CC1 | 43.9% and 37.4% |
